Measurements collected from several papers.
Protocols differ between the studies behind these lines.

SMILES	organism	test	system	conditions	MIC
CCCCCC(=O)NCCCC[C@H](NC(=O)CCCCC)C(=O)N[C@@H](CCCCNC(=O)CCCCC)C(=O)NCC(=O)NCC(=O)NCC(=O)N[C@@H](CS)C(=O)N[C@@H](CCCNC(=N)N)C(=O)N[C@@H](CCCCN)C(=O)N1CCC[C@H]1C(=O)N[C@@H](CS)C(=O)N[C@@H](CCCNC(=N)N)C(=O)N[C@@H](CCCCN)C(=O)N1CCC[C@H]1C(N)=O	Candida tropicalis	broth microdilution	CGMCC 2.197, RPMI-1640	48 h, 30 °C	32 µM
CC(C)C[C@H](NC(=O)[C@@H](NC(=O)[C@H](CCCNC(=N)N)NC(=O)[C@H](CCC(N)=O)NC(=O)[C@H](Cc1ccccc1)NC(=O)[C@H](Cc1ccc(O)cc1)NC(=O)[C@H](CC(N)=O)NC(=O)[C@H](Cc1c[nH]c2ccccc12)NC(=O)[C@@H](NC(=O)[C@H](CCCNC(=N)N)NC(=O)[C@H](CCCCN)NC(=O)[C@@H](N)Cc1ccccc1)C(C)C)C(C)C)C(=O)N[C@H](C(=O)N[C@@H](CCCCN)C(=O)N[C@@H](CCCCN)C(=O)N[C@@H](Cc1ccc(O)cc1)C(N)=O)C(C)C	Salmonella typhimurium	broth dilution	SL1344	–	6.3 µM
O=C(c1ccccc1O)c1[nH]c(Cl)c(Cl)c1-n1c(C(=O)c2ccccc2O)cc(Cl)c1Cl	Providencia alcalifaciens	–	ATCC 9886	–	> 64 µM
CC[C@H](C)[C@H](NC(=O)[C@H](Cc1c[nH]c2ccccc12)NC(=O)[C@H](Cc1ccc(O)cc1)NC(=O)[C@H](CCCCN)NC(=O)[C@H](CC(C)C)NC(=O)[C@H](CO)NC(=O)[C@@H](N)Cc1ccccc1)C(=O)N[C@@H](CCCNC(=N)N)C(=O)N[C@@H](Cc1ccc(O)cc1)C(=O)N[C@@H](CCCCN)C(=O)N[C@@H](CCCNC(=N)N)C(=O)N[C@@H](CCC(N)=O)C(=O)NCC(=O)N[C@@H](C)C(=O)N[C@@H](C)C(=O)N[C@@H](CCCNC(=N)N)C(=O)N[C@@H](Cc1ccccc1)C(N)=O	Enterobacter sp.	broth dilution	KCTC 2625	–	< 3.1 µM
CC[C@H](C)[C@H](NC(=O)[C@H](CCCCN)NC(=O)[C@H](CCCCN)NC(=O)[C@H](Cc1ccccc1)NC(=O)[C@H](Cc1ccccc1)NC(=O)[C@H](CCCCN)NC(=O)[C@H](CCCCN)NC(=O)[C@H](Cc1ccccc1)NC(=O)[C@H](CCCNC(=N)N)NC(=O)[C@@H](N)CCCCN)C(=O)N[C@@H](CCCCN)C(=O)N[C@@H](CCCCN)C(=O)N[C@@H](CO)C(=O)N[C@H](C(=O)N[C@@H](CCCCN)C(=O)N[C@@H](CCCCN)C(=O)N[C@@H](CCCNC(=N)N)C(=O)N[C@H](C(=O)N[C@@H](CCCCN)C(=O)N[C@@H](CCCCN)C(=O)N[C@@H](CC(C)C)C(=O)N[C@@H](Cc1ccccc1)C(=O)N[C@@H](CCCCN)C(=O)N[C@@H](CCCCN)C(=O)N1CCC[C@H]1C(=O)N[C@@H](CCCNC(=N)N)C(=O)N[C@H](C(=O)N[C@H](C(=O)N1CCC[C@H]1C(=O)N[C@H](C(=O)N[C@@H](CO)C(=O)N[C@H](C(=O)N1CCC[C@H]1C(=O)N[C@@H](Cc1ccccc1)C(=O)O)[C@@H](C)CC)[C@@H](C)CC)[C@@H](C)CC)C(C)C)C(C)C)C(C)C	Escherichia coli	–	E24	20 h, with: 100 mM NaCl	4 µg/mL
CC[C@H](C)[C@H](NC(=O)[C@H](C)NC(=O)CNC(=O)[C@H](C)NC(=O)[C@H](CCCCN)NC(=O)[C@H](CO)NC(=O)[C@H](C)NC(=O)[C@H](CCSC)NC(=O)CN)C(=O)N[C@@H](C)C(=O)NCC(=O)N[C@@H](CCCCN)C(=O)N[C@H](C(=O)N[C@@H](C)C(=O)N[C@@H](CCCCN)C(=O)N[C@H](C(=O)N[C@@H](C)C(=O)N[C@@H](CC(C)C)C(=O)N[C@@H](CCCCN)C(=O)N[C@@H](C)C(=O)N[C@@H](CC(C)C)C(N)=O)C(C)C)[C@@H](C)CC	Escherichia coli	–	CFT073 ampicillin-resistant	18 h, 37 °C, minimal salts medium	2.5 µg/mL
CC[C@H](C)[C@@H]1NC(=O)[C@H](CO)NC(=O)[C@H](CCCCN)NC(=O)[C@@H]2CSSC[C@@H](C(=O)N[C@@H](Cc3ccc(O)cc3)C(N)=O)NC(=O)[C@H](CCCCN)NC(=O)[C@@H]3CSSC[C@H](NC(=O)[C@H](CCCNC(=N)N)NC(=O)[C@H](CC(C)C)NC(=O)[C@H](CC(=O)O)NC(=O)[C@H](CC(=O)O)NC(=O)[C@H](CCC(=O)O)NC(=O)[C@H](CC(N)=O)NC(=O)[C@H](Cc4c[nH]c5ccccc45)NC(=O)C(C)(CC)NC(=O)CNC(=O)[C@H](CC(N)=O)NC(=O)[C@@H](NC(=O)CNC(=O)[C@H](Cc4ccccc4)NC(=O)CN)CSSC[C@H](NC(=O)[C@H](Cc4ccc(O)cc4)NC(=O)CNC(=O)CNC(=O)[C@H](CCCCN)NC(=O)[C@H](Cc4ccc(O)cc4)NC(=O)[C@H]4CCCN4C(=O)[C@@H]4CCCN4C1=O)C(=O)N[C@@H](C)C(=O)N[C@@H](CCCCN)C(=O)N1CCC[C@@H]1C(=O)NCC(=O)N[C@@H](Cc1ccccc1)C(=O)N[C@@H](C(C)C)C(=O)N3)C(=O)N[C@@H](Cc1c[nH]cn1)C(=O)N[C@@H](CC(N)=O)C(=O)N[C@@H](Cc1c[nH]cn1)C(=O)N2 (stereo partly shown)	Streptococcus pneumoniae	broth microdilution	BS-441	18 h	0.25 µM
[O-][N+]1=C(c2ccccc2)C2=NCCCN2c2ncccc21	Clostridioides difficile	–	–	–	0.25 to 1 µg/mL
CC1COC2=C1C(=O)C(=O)c1c2ccc2c1C(OC(=O)CNC(=O)CN)CCC2(C)C (mixture of isomers)	Cutibacterium acnes	–	GDMCC 1.243	48 h, anaerobic	125 µM
CC[C@H](C)[C@H](NC(=O)[C@H](CCCNC(=N)N)NC(=O)[C@H](CO)NC(=O)[C@H](Cc1ccc(O)cc1)NC(=O)[C@@H](NC(=O)[C@@H](NC(=O)[C@H](C)NC(=O)CNC(=O)[C@H](CCCCN)NC(=O)[C@H](CCCCN)NC(=O)CCNC(=O)CCCCCNC(=O)[C@H](CCCNC(=N)N)NC(=O)CCCCCNC(=O)[C@H](CCCNC(=N)N)NC(=O)[C@H](CCCNC(=N)N)NC(=O)CCCCCNC(=O)[C@H](CCCNC(=N)N)NC(=O)[C@H](CCCNC(=N)N)NC(=O)CCCCCNC(=O)[C@H](CCCNC(=N)N)NC(=O)[C@H](CCCNC(=N)N)NC(=O)CCCCCNC(=O)[C@@H](N)CCCNC(=N)N)C(C)C)[C@@H](C)O)C(=O)N[C@@H](CO)C(=O)NCC(=O)N[C@@H](CCC(N)=O)C(=O)N[C@@H](Cc1ccc(O)cc1)C(=O)N[C@@H](CCCCN)C(=O)O	Escherichia coli	–	ATCC 25922	1 h, 37 °C, after 90% fetal bovine serum	48 µM
[O-][N+]1=C(c2ccccc2)C2=NCCN2c2ccccc21	Clostridioides difficile	–	–	–	0.125 to 1 µg/mL
C=C1NC(=O)C2CSCC3NC(=O)C(CSC(C)C(NC(=S)C(Cc4cnc[nH]4)NC(=O)c4csc(C(C)NC(C)=O)n4)C(=O)N[C@H](CC(C)C(=O)NC(=O)CC(C(=O)O)NC(=O)C(C)NC3=O)C(=O)N2)NC(=O)[C@@H]2CCCN2C(=O)[C@@H](CC(C)C)NC1=O (stereo partly shown)	Enterobacter aerogenes	–	ATCC 13048	–	> 32 µg/mL
CC[C@H](C)[C@@H]1NC(=O)[C@H](CCCNC(=N)N)NC(=O)[C@H]([C@@H](C)O)NC(=O)[C@H](Cc2c[nH]c3ccccc23)NC(=O)[C@H](Cc2ccccc2)NC(=O)[C@H](Cc2c[nH]c3ccccc23)NC(=O)[C@H](CCCNC(=N)N)NC(=O)[C@H](CCCNC(=N)N)NC(=O)[C@H](CCCNC(=N)N)NC(=O)[C@H](Cc2ccccc2)NC(=O)CNC(=O)[C@H](CCCCN)NC(=O)[C@@H](NC(=O)[C@H](CCCNC(=N)N)NC(=O)CNC(=O)CN)CSSC[C@@H](C(N)=O)NC1=O	Botrytis cinerea	resazurin	synthetic fungal medium	with: NaCl 100 mM	1.5 µM

Some of these lines once more:
SMILES	organism	test	system	conditions	MIC
[O-][N+]1=C(c2ccccc2)C2=NCCN2c2ccccc21	Clostridioides difficile	–	–	–	0.125 to 1 µg/mL
C=C1NC(=O)C2CSCC3NC(=O)C(CSC(C)C(NC(=S)C(Cc4cnc[nH]4)NC(=O)c4csc(C(C)NC(C)=O)n4)C(=O)N[C@H](CC(C)C(=O)NC(=O)CC(C(=O)O)NC(=O)C(C)NC3=O)C(=O)N2)NC(=O)[C@@H]2CCCN2C(=O)[C@@H](CC(C)C)NC1=O (stereo partly shown)	Enterobacter aerogenes	–	ATCC 13048	–	> 32 µg/mL
